Earlier results that unrelated publications cite.
Each line is one published result; not all experiments were run side by side.
Chain of UniProt Q8NEV4 (whole entry, looked up): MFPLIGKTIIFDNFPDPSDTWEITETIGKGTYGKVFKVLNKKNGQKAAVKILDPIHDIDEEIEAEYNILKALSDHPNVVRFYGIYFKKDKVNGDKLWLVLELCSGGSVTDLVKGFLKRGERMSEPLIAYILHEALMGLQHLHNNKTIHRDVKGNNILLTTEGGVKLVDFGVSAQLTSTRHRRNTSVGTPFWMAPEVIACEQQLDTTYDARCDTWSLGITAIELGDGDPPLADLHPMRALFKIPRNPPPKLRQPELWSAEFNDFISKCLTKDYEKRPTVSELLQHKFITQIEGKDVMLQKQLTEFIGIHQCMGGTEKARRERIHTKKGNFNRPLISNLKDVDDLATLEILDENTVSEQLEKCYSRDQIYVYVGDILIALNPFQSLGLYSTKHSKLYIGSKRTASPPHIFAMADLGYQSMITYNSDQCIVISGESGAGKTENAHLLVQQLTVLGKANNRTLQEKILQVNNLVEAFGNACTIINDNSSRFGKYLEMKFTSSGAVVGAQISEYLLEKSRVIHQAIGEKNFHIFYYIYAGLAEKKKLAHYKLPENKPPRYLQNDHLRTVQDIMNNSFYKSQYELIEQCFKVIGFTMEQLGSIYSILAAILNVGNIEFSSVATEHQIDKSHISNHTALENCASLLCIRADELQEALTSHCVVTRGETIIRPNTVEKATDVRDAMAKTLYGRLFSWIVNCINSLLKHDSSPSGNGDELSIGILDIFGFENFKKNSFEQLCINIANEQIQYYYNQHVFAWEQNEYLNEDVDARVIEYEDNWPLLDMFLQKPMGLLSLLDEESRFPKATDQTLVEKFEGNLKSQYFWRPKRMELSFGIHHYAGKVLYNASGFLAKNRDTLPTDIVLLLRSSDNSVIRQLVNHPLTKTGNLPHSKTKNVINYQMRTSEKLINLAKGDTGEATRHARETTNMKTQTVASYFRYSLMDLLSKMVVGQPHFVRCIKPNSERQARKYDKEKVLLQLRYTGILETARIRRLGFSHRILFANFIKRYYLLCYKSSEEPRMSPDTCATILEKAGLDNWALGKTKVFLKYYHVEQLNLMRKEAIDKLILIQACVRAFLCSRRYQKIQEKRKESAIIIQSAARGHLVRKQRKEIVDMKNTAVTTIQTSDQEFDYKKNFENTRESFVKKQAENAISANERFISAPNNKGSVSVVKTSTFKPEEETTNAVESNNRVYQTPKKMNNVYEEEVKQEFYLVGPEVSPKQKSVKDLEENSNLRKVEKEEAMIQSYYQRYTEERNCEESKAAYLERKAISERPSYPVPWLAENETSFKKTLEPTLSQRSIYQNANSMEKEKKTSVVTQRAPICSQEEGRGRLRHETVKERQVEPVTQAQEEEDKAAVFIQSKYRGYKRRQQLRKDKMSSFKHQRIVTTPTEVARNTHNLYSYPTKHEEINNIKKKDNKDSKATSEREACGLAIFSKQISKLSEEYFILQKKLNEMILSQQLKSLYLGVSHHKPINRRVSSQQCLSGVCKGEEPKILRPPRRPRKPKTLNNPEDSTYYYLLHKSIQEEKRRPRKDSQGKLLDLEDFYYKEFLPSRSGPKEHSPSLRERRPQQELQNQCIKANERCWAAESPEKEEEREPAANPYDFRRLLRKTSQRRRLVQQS

Structure (SMILES)	tested on	effect on	strain	tested at	relative to	endpoint	value
CC1(C)S[C@@H]2[C@H](NC(=O)[C@H](N)c3ccccc3)C(=O)N2[C@H]1C(=O)O	Klebsiella pneumoniae	–	clinical isolate RKI-No_95/16	–	–	MIC	> 16 µg/mL
CO[C@H]1/C=C/O[C@@]2(C)Oc3c(C)c(O)c4c(O)c(c(/C=N/N5CCN(C)CC5)c(O)c4c3C2=O)NC(=O)/C(C)=C\C=C\[C@H](C)[C@H](O)[C@@H](C)[C@@H](O)[C@@H](C)[C@H](OC(C)=O)[C@@H]1C	Escherichia coli	–	ATCC BAA-2469	–	–	MIC	4 µg/mL
CC(=O)O[C@H]1C[C@@]2(C)[C@@H](C[C@@H](O)[C@H]3[C@@]4(C)CC[C@@H](O)[C@@H](C)[C@@H]4CC[C@@]32C)/C1=C(\CCC=C(C)C)C(=O)O	Mycolicibacterium smegmatis	–	mc2155	–	–	MIC	32 µg/mL
Oc1ccc(-c2nc(-c3ccc(OC4CCCC4)cc3)no2)cc1	Streptococcus pyogenes	–	ATCC 49399	–	–	MIC	> 128 µg/mL
NCC[C@H](O)C(=O)N[C@@H]1C[C@H](N)[C@@H](O[C@H]2O[C@H](CN)[C@@H](O)[C@H](O)[C@H]2O)[C@H](O)[C@H]1O[C@H]1O[C@H](CO)[C@@H](O)[C@H](N)[C@H]1O	Escherichia coli	–	ATCC BAA-2469	–	–	MIC	> 256 µg/mL
Oc1ccc(-c2nc(-c3ccc(OC4CCCC4)cc3)no2)cc1	Acinetobacter baumannii	–	ATCC 17961	–	–	MIC	> 128 µg/mL
C[C@H]1COc2c(N3CCN(C)CC3)c(F)cc3c(=O)c(C(=O)O)cn1c23	Mycolicibacterium smegmatis	–	mc2155	–	–	MIC	0.25 µg/mL
FC(F)(F)c1ccc(Oc2ccc(-c3noc(-c4ccc5[nH]ccc5c4)n3)cc2)cc1	Lactobacillus reuteri	–	HM-102	–	–	MIC	> 128 µg/mL
C[C@@H](O)[C@H]1C(=O)N2C(C(=O)O)=C(SCCN=CN)C[C@H]12	Mycolicibacterium smegmatis	–	mc2155	–	–	MIC	8 µg/mL
CCc1c(Cl)c(O)c(Cl)c(O)c1C(=O)O[C@H]1[C@H](O)[C@H](OC)[C@H](OC/C2=C\C=C\C[C@H](O)/C(C)=C/[C@H](CC)[C@@H](O[C@@H]3OC(C)(C)[C@@H](OC(=O)C(C)C)[C@H](O)[C@@H]3O)/C(C)=C/C(C)=C/C[C@@H]([C@@H](C)O)OC2=O)O[C@@H]1C	Bacteroides fragilis	–	HM-709	–	–	MIC	> 32 µg/mL
CC1(C)S[C@@H]2[C@H](NC(=O)[C@H](N)c3ccccc3)C(=O)N2[C@H]1C(=O)O	Mycolicibacterium smegmatis	–	mc2155	–	–	MIC	18.7 µg/mL
CCc1c(Cl)c(O)c(Cl)c(O)c1C(=O)O[C@H]1[C@H](O)[C@H](OC)[C@H](OC/C2=C\C=C\C[C@H](O)/C(C)=C/[C@H](CC)[C@@H](O[C@@H]3OC(C)(C)[C@@H](OC(=O)C(C)C)[C@H](O)[C@@H]3O)/C(C)=C/C(C)=C/C[C@@H]([C@@H](C)O)OC2=O)O[C@@H]1C	Enterococcus faecium	–	119-39A vancomycin-susceptible	–	–	MIC	> 16 µg/mL
CN[C@H](CC(C)C)C(=O)N[C@H]1C(=O)N[C@@H](CC(N)=O)C(=O)N[C@H]2C(=O)N[C@H]3C(=O)N[C@H](C(=O)N[C@H](C(=O)O)c4cc(O)cc(O)c4-c4cc3ccc4O)[C@H](O)c3ccc(c(Cl)c3)Oc3cc2cc(c3O[C@@H]2O[C@H](CO)[C@@H](O)[C@H](O)[C@H]2O[C@H]2C[C@](C)(N)[C@H](O)[C@H](C)O2)Oc2ccc(cc2Cl)[C@H]1O	Streptococcus pyogenes	–	SSI-9	–	–	MIC	0.34 µM
CO/N=C(\C(=O)N[C@@H]1C(=O)N2C(C(=O)O)=C(CSc3nc(=O)c(=O)[nH]n3C)CS[C@H]12)c1csc(N)n1	Escherichia coli	–	ATCC BAA-2469	–	–	MIC	2050 µg/mL
O=C(N[C@H](CO)[C@H](O)c1ccc([N+](=O)[O-])cc1)C(Cl)Cl	Bacillus cereus	–	–	–	–	MIC	1 to 4 µg/mL
CNC(C)C1CCC(N)C(OC2C(N)CC(N)C(OC3OCC(C)(O)C(NC)C3O)C2O)O1 (centres unmarked)	Enterobacter cloacae	–	clinical isolate RKI-No_361/13	–	–	MIC	4 µg/mL
CC(C)(O/N=C(\C(=O)N[C@@H]1C(=O)N2C(C(=O)[O-])=C(C[n+]3ccccc3)CS[C@H]12)c1csc(N)n1)C(=O)O	Escherichia coli	–	ATCC 25922	–	–	MIC	0.06 to 0.5 µg/mL
CO[C@H]1/C=C/O[C@@]2(C)Oc3c(C)c(O)c4c(O)c(c(/C=N/N5CCN(C)CC5)c(O)c4c3C2=O)NC(=O)/C(C)=C\C=C\[C@H](C)[C@H](O)[C@@H](C)[C@@H](O)[C@@H](C)[C@H](OC(C)=O)[C@@H]1C	Mycolicibacterium smegmatis	–	mc2155	–	–	MIC	0.8 µg/mL
C[C@@H](O)[C@H]1C(=O)N2C(C(=O)O)=C(S[C@@H]3CN[C@H](C(=O)N(C)C)C3)[C@H](C)[C@H]12	Escherichia coli	–	ATCC 25922	–	–	MIC	0.008 to 0.06 µg/mL
Nc1cc(C(F)(F)F)c(-c2nc(N3CCOCC3)nc(N3CCOCC3)n2)cn1	Myosin-IIIa (MYO3A, Homo sapiens, UniProt Q8NEV4)	enzyme activity	–	10 µM	untreated	remaining activity	86%

Some of these lines once more:
Structure (SMILES)	tested on	effect on	strain	tested at	relative to	endpoint	value
CCc1c(Cl)c(O)c(Cl)c(O)c1C(=O)O[C@H]1[C@H](O)[C@H](OC)[C@H](OC/C2=C\C=C\C[C@H](O)/C(C)=C/[C@H](CC)[C@@H](O[C@@H]3OC(C)(C)[C@@H](OC(=O)C(C)C)[C@H](O)[C@@H]3O)/C(C)=C/C(C)=C/C[C@@H]([C@@H](C)O)OC2=O)O[C@@H]1C	Enterococcus faecium	–	119-39A vancomycin-susceptible	–	–	MIC	> 16 µg/mL
CN[C@H](CC(C)C)C(=O)N[C@H]1C(=O)N[C@@H](CC(N)=O)C(=O)N[C@H]2C(=O)N[C@H]3C(=O)N[C@H](C(=O)N[C@H](C(=O)O)c4cc(O)cc(O)c4-c4cc3ccc4O)[C@H](O)c3ccc(c(Cl)c3)Oc3cc2cc(c3O[C@@H]2O[C@H](CO)[C@@H](O)[C@H](O)[C@H]2O[C@H]2C[C@](C)(N)[C@H](O)[C@H](C)O2)Oc2ccc(cc2Cl)[C@H]1O	Streptococcus pyogenes	–	SSI-9	–	–	MIC	0.34 µM
CO/N=C(\C(=O)N[C@@H]1C(=O)N2C(C(=O)O)=C(CSc3nc(=O)c(=O)[nH]n3C)CS[C@H]12)c1csc(N)n1	Escherichia coli	–	ATCC BAA-2469	–	–	MIC	2050 µg/mL
